Measurements from different studies.
Each line is one published result; not all experiments were run side by side.

| Structure (SMILES) | method | matrix | concentration | time | pH | fraction unbound |
| --- | --- | --- | --- | --- | --- | --- |
| COC1C=COC2(C)Oc3c(C)c(O)c4c(c3C2=O)C2=NC3(CCN(CC(C)C)CC3)NC2=C(NC(=O)C(C)=CC=CC(C)C(O)C(C)C(O)C(C)C(OC(=O)c2cccnc2)C1C)C4=O (stereo not shown) | – | human plasma | – | – | – | 0.0386 |
| CNCc1ccc(-c2cc(=O)c3ccc4[nH]c(C(F)(F)F)nc4c3o2)cc1 | – | plasma | – | – | – | 4.6% |
| NS(=O)(=O)c1ccc(NC(=O)[C@H](CC2CCCCC2)Nc2nn3c(=O)ccnc3s2)cc1 | rapid equilibrium dialysis | human plasma | 1 µM | 4 h | – | 0.053 |
| O=C(CNC(=O)c1cccc(NC2=NCCCN2)c1)NC[C@H](NC(=O)c1c(Cl)cc(-c2ccccc2)cc1Cl)C(=O)O | equilibrium dialysis | mouse plasma | – | – | – | 0.018 |
| CN1CC[C@@H](COc2cnc(C#N)cc2-c2ccn3nc(NC(=O)C4CC4)cc3c2)C1 | – | mouse plasma diluted 25% | 1 µM | 6 h | pH 7.4 | 0.48 |
| O=C(Nc1ccc(C(F)F)cc1)[C@H](CC1CCCCC1)Nc1nn2c(=O)ccnc2s1 | rapid equilibrium dialysis | human plasma | 1 µM | 4 h | – | 0.007 |
| COc1ccccc1NC(=O)OC1C(C)C(OC)C=COC2(C)Oc3c(C)c(O)c4c(c3C2=O)C2=NC3(CCN(CC(C)C)CC3)NC2=C(NC(=O)C(C)=CC=CC(C)C(O)C(C)C(O)C1C)C4=O (stereo not shown) | – | human plasma | – | – | – | 0.00432 |
| O=C(Nc1nc(C(F)(F)F)co1)C1c2ccccc2Oc2ccccc21 | equilibrium dialysis | human plasma | – | 4 h | pH 7.4 | 0.003 |
| OCC1OC(n2cnc3c(NCc4ccc(Br)s4)ncnc32)C(O)C1O (stereo not shown) | equilibrium dialysis | dog plasma | 0.05 µg/mL | 4 h | pH 7.4 | 0.135 |
| COC1C=COC2(C)Oc3c(C)c(O)c4c(c3C2=O)C2=NC3(CCN(CC(C)C)CC3)NC2=C(NC(=O)C(C)=CC=CC(C)C(O)C(C)C(O)C(C)C(OC(=O)Nc2cccnn2)C1C)C4=O (stereo not shown) | – | human plasma | – | – | – | 0.103 |
| CS(=O)(=O)c1ccc(-c2cc(Cl)c(C(=O)N[C@@H](CNC(=O)CNC(=O)c3cccc(NC(=N)N)c3)C(=O)O)c(Cl)c2)cc1 | equilibrium dialysis | mouse plasma | – | – | – | 0.046 |
| [11CH3]N(Cc1ccc(/C=C/C(=O)NO)cc1)CC12CC3CC(CC(C3)C1)C2 | – | human plasma | – | 10 min | – | 0.055 |
| COC1C=COC2(C)Oc3c(C)c(O)c4c(c3C2=O)C2=NC3(CCN(CC(C)C)CC3)NC2=C(NC(=O)C(C)=CC=CC(C)C(O)C(C)C(O)C(C)C(OC(=O)c2cncnc2)C1C)C4=O (stereo not shown) | rapid equilibrium dialysis | mouse plasma | – | – | – | 0.0466 |
| Nc1nc(SCc2ccc(Cl)cc2)nn1S(=O)(=O)c1ccc2c(c1)CCO2 | equilibrium dialysis | human plasma | 5 µM | 6 h | – | < 0.001 |
| COC1C=COC2(C)Oc3c(C)c(O)c4c(c3C2=O)C2=NC3(CCN(CC(C)C)CC3)NC2=C(NC(=O)C(C)=CC=CC(C)C(O)C(C)C(O)C(C)C(OC(=O)Nc2cscn2)C1C)C4=O (stereo not shown) | rapid equilibrium dialysis | mouse plasma | – | – | – | 0.0168 |
| Cc1nc2ccc(S(=O)(=O)n3nc(SCc4ccc(Cl)cc4)nc3N)cc2s1 | equilibrium dialysis | mouse plasma | 5 µM | 6 h | – | 0.002 |

Excerpt of the above:
| Structure (SMILES) | method | matrix | concentration | time | pH | fraction unbound |
| --- | --- | --- | --- | --- | --- | --- |
| [11CH3]N(Cc1ccc(/C=C/C(=O)NO)cc1)CC12CC3CC(CC(C3)C1)C2 | – | human plasma | – | 10 min | – | 0.055 |
| COc1ccccc1NC(=O)OC1C(C)C(OC)C=COC2(C)Oc3c(C)c(O)c4c(c3C2=O)C2=NC3(CCN(CC(C)C)CC3)NC2=C(NC(=O)C(C)=CC=CC(C)C(O)C(C)C(O)C1C)C4=O (stereo not shown) | – | human plasma | – | – | – | 0.00432 |
